Experimental data gathered from unrelated publications.
Lines come from different studies, so protocols differ.
Target: Platelet-derived growth factor receptor beta (PDGFRB, Homo sapiens, UniProt P09619)
Sequence of UniProt P09619 (whole entry, looked up): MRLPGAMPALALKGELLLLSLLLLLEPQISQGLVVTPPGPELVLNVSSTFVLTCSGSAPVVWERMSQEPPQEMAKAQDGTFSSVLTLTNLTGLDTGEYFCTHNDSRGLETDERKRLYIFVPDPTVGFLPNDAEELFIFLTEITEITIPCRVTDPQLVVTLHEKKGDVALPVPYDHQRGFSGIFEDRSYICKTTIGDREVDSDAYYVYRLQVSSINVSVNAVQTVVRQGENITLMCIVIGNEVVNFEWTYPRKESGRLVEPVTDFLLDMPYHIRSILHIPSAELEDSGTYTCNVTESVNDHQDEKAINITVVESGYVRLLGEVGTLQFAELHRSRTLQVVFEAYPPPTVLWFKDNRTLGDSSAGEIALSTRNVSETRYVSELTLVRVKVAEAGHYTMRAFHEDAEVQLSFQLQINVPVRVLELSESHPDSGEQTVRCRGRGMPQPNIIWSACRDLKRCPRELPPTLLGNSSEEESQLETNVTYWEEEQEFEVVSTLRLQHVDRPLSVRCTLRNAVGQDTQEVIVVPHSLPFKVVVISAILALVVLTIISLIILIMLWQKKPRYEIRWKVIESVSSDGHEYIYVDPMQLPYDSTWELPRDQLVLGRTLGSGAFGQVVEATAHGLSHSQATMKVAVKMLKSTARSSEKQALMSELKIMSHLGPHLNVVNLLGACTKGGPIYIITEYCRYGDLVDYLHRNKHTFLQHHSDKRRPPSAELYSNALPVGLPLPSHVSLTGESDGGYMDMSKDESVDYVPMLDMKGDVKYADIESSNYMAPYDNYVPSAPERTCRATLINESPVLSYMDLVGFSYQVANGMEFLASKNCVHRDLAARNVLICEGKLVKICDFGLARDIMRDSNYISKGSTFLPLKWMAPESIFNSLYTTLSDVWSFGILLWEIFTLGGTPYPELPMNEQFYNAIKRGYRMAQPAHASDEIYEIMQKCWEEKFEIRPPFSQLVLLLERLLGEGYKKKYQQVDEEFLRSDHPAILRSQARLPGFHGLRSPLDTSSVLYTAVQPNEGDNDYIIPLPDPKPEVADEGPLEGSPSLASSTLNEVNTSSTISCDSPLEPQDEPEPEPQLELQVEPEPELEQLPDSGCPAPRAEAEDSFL

CC(=O)N1c2ccc(-c3ccc(CNC(=O)c4cn5cc(-c6cnc(N)nc6)nc(N6CCOCC6)c5n4)cc3)cc2CC[C@@H]1C — remaining binding (binding, competition with immobilised ligand; 10 µM): 53%
Cc1nc2c(F)cc(-c3nc(Nc4ccc(CNC(=O)CCCCCCC(=O)NO)cc4)ncc3F)cc2n1C(C)C — inhibition (enzyme activity, inhibitor; 1 µM): 54%
Cc1cnc2nc1Nc1cccc(c1)COC/C=C/COCc1cc(ccc1OCCN1CCOCC1)N2 — remaining binding (binding; 0.1 µM): 12%
Nc1ncc(-c2cc(-c3cnn(CC(F)(F)F)c3)ncc2F)nc1C(=O)NC1CNCC(F)C1 (stereo not shown) — remaining activity (enzyme activity; 1 µM; reference: DMSO control): 99.3%
CN1CCN(c2ccc(Nc3ncc(Cl)c(Nc4ccccc4P(C)(C)=O)n3)cc2Br)CC1 — inhibition (enzyme activity, inhibitor; 0.1 µM): 97%
O=C(Nc1ccc(Oc2ncnc3[nH]cc(-c4ccccc4)c23)c(F)c1)c1c2n(n(-c3cc(F)ccc3F)c1=O)CCCC2 — inhibition (enzyme activity, inhibitor; 0.5 µM): -12%
NC(=O)[C@@H](O)C[C@H]1CCc2sc3ncnc(O[C@H]4CC[C@H](N5CCOCC5)CC4)c3c21 — inhibition (enzyme activity, inhibitor; 10 µM): 28%
CNC(=O)C[C@H](Cc1ccc(C#N)cc1)NC(=O)c1cc(-c2ccc(CN[C@H](C)c3ccc(C)cc3)o2)ccc1Cl — activity vs control (enzyme activity, inhibitor; 1 µM): 110%
CN1CCN(Cc2ccc(NC(=O)c3cccc(C#Cc4cnc(N)c5ncccc45)c3)cc2C(F)(F)F)CC1 — remaining binding (cell-free assay, competition with immobilised ligand; 0.5 µM): 0%
Cc1cccc(O[C@H]2CCC[C@@H](C(C)CNCc3ccncc3)C2)c1 (relative stereo) — inhibition (enzyme activity, inhibitor; 1 µM): 3%
C[C@H]1CN(C(=O)c2cn(-c3ccnc(N)n3)c3cc(C#CC4(O)CCCCC4)ccc23)CCN1 — inhibition (enzyme activity, inhibitor, FRET; 1 µM): 0%
CNC(=O)C1CCN(c2cc(C)c(F)cc2NC(=O)c2ccc(-c3cc(O)ccc3C)c(C)c2)CC1 — remaining binding (binding, competition with immobilised ligand; 1 µM): 43%
COC(=O)[C@@]1(C)C=C(C(=O)Nc2cccc(C(=O)Nc3ccc(Nc4nccc(-c5cccnc5)n4)c(C)c3)c2)C(=O)CC1 — remaining binding (binding, competition with immobilised ligand; 1 µM): 71%
COc1cc(Nc2nccc(-c3cnn4nc(OC)ccc34)n2)cc(C(F)(F)F)c1 — remaining binding (binding, competition with immobilised ligand; 1 µM): 85%
C=CC(=O)Nc1cccc(-c2cnc3[nH]cc(C(=O)NC(C)(C)C)c3n2)c1 — inhibition (enzyme activity, inhibitor; 0.1 µM): 19%
O=C(O)CCC(=O)c1cccc(NS(=O)(=O)c2c[nH]c3ncccc23)c1 — remaining activity (kinase activity, radiometric; 10 µM): 80%
CNC1C[S+]2CC[S+]3CC[S+](C1)[Ru-4]321([N]=C=S)[n]2c3ccc(OC)cc3c3c4c(c5cc(F)c[n+]1c5c32)C(=O)NC4=O (stereo not shown) — remaining binding (KinomeScan; 0.1 µM; reference: untreated): 15%
COc1ccc(C(=O)/C=C/c2ccccc2-c2c[nH]c3ccc(C#N)cc23)c(O)c1 — inhibition (enzyme activity, inhibitor; 20 µM): -9%
COc1cc(OC)c(F)c(/C=C/c2cnc3ccn(S(=O)(=O)c4cn(CCF)cn4)c3n2)c1F — inhibition (10 nM): 0%
Cc1cc(-c2n[nH]cc2C(=O)Nc2ccc(C)c(F)c2)ccn1 — remaining binding (cell-free assay, competition with immobilised ligand; 10 µM): 19%
Cc1ccc(-c2c(/C=C(\C#N)C(=O)NC(C)C)n(CCCO)c3ncnc(N)c23)cc1 — remaining binding (cell-free assay, competition with immobilised ligand; 1 µM): 27%
Nc1ncc2c(n1)-c1c([nH]c3ccc(C4=CCOCC4)cc13)CCC2 — remaining binding (binding, competition with immobilised ligand; 1 µM): 100%
CN1CC[C@@H](COc2cnc(C#N)cc2-c2ccn3nc(NC(=O)C4CC4)cc3c2)C1 — inhibition (enzyme activity, inhibitor; 1 µM): 32%
CCN1CCN(Cc2ccc(NC(=O)c3ccc(C)c(NC(=O)c4cncc(-c5cccs5)c4)c3)cc2C(F)(F)F)CC1 — remaining binding (binding, competition with immobilised ligand; 1 µM): 0.05%
CNC(=O)c1cnc(Nc2ccncc2)nc1-c1ccc(C)cc1 — remaining binding (cell-free assay, competition with immobilised ligand; 10 µM): 5.3%
